Published values from different studies.
A part holds a random share of what one study measured.

Sample 1 — technique: protein binding microarray; molecule type: double-stranded DNA, one strand shown; matrix: in vitro; concentration: not given; relative to: not given; reading: higher = stronger binding; measurement: E-score
Target: Histone acetyltransferase KAT6A, winged helix 2, GST fusion (KAT6A, Homo sapiens, UniProt Q92794, residues 85-181)
Notes: 8-mer, flanks averaged, mean of 2 arrays, mostly near background
Construct (chain): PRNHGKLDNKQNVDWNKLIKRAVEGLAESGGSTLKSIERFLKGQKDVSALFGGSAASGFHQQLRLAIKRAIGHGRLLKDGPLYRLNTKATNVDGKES
GGGAGGAC: -0.0377
GGACCCCA: 0.031
CCTTCCTA: -0.0566
GAGTTGCA: -0.0339
TGACGTAA: -0.143

Sample 2 — technique: RNA Bind-n-Seq; molecule type: RNA; matrix: in vitro; concentration: 365 nM; relative to: no-protein control; reading: higher = stronger binding; measurement: RBNS enrichment (R)
Target: RNA binding protein fox-1 homolog 2, RRM domain, GST-SBP tag (RBFOX2, Homo sapiens, UniProt O43251-10, residues 100-194)
Notes: natural RNA segment, single round, ends assumed
Shared flanks, not repeated: GGGAGUUCUACAGUCCGACGAUC … UGGAAUUCUCGGGUGCCAA
ACAUCUAUUAUUAUAGUGCUCAGCAGUGUGGGCAUUGAAGAGGCGCAGAAUGCUUUGAAAGAAACUAAUCAGAAUCUUGGAACAUCAUGAUCAUGCCAUUCUUAAGUAAA: 0.456
UUACAAUUUUUACAGCUUUCCUAGGAUUUUAAAAUGGAAAUGUCAAUAAAUGCUACGAAUCGGUGUGAAGCUGUUCUUUGUGGUUCAUUCCUUGGGAACACGGUGGCUUU: 0.455
CCUGUGGCCAGGCGCUCCUGCACGUGCCCACUUCCUGCUCGGUACUGGUACUGGGUACAUGGGUAAGGGUGGUACAGUGAAACCCACUCUCUCCCCUUUUUAUAAUGUAG: 0.383
CUGGUAUUCCAAGUUGAGUAUGGGUUGAACUGGAAAAUUCCCUGAGGCAUAACUUGUUAGCCAAUUUGAGGAGAGCCAGUUUGAGGGUUAUGAAAGUCAGCACCAGAGAU: 1.47
CACUGCUUGGGCUGCUUGUAGCGGAAUCCUUGGAAAACAGUUGUUGAGGGCCUUGACAGAUCGGGCCAGCGCUGACCUCUGUGCUCUGCUUCCUUUCUUUAUCCCUGUUU: 0.554
ACAGGUUUGAACUUGCACUUCUUAAGGAACAGCCAUAAUCCUCUGAAUGAUGCAUUAAUUACUGACUGUCCUAGUACAUUGGAAGCUUUUGUUUAUAGGAACUUGUAGGG: 1.83

Sample 3 — technique: aptamer microarray, sandwich; molecule type: DNA with 2'F-ANA; matrix: in vitro; concentration: 200 nM; together with: Cy3 exosite-II aptamer, 400 nM; reading: higher = stronger binding; measurement: mean fluorescence intensity; oligonucleotide: GGTTGGTGTGGTTGG
Target: Prothrombin, mature alpha-thrombin (F2, Homo sapiens, UniProt P00734)
Notes: whole 15-mer aptamer, many near background
2'F-ANA at 3 6 9 12 13 14: 516 a.u.
2'F-ANA at 1 2 3 4 8 12 14 15: 83.2 a.u.
2'F-ANA at 1 7 8 9 14 15: 67.8 a.u.
2'F-ANA at 2 3 4 5 8 13 15: 80.4 a.u.
2'F-ANA at 3 9 10 13 14 15: 380 a.u.

Further values, each from its own experiment
PhoQ, residues 284 288 289 292 302 303 TLASMF  fold induction (PhoP, residues 12 14 15 18 19 NFCKL (Escherichia coli, UniProt P23836); Sort-seq, refers to: YFP reporter; E. coli; PhoQ-PhoP variant library, together with: 10 µM Mg2+; relative to: high Mg2+ state, higher = stronger signaling): 7.56

Some of these lines once more (sample 3):
2'F-ANA at 1 7 8 9 14 15: 67.8 a.u.
2'F-ANA at 1 2 3 4 8 12 14 15: 83.2 a.u.
2'F-ANA at 3 6 9 12 13 14: 516 a.u.
